Measurements from different studies.
Converted amounts (≈) assume the structure as drawn.
UniProt Q9H1R3, sequence (whole entry, looked up): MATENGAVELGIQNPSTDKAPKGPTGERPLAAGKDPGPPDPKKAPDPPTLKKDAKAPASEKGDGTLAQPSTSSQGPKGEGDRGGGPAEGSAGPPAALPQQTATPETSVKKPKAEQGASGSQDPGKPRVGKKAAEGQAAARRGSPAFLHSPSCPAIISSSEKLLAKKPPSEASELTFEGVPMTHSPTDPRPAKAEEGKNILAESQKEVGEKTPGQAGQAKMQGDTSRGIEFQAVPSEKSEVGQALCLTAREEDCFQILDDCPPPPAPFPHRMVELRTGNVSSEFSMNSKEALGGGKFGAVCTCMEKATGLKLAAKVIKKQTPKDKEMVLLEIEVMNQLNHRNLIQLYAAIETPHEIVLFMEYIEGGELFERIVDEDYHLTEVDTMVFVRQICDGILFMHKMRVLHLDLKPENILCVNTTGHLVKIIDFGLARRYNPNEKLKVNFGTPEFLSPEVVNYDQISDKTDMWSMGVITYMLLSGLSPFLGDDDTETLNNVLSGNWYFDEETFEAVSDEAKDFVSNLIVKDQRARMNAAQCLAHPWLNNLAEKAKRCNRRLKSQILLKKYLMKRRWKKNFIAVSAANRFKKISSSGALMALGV
UniProt Q9H2X6, sequence (whole entry, looked up): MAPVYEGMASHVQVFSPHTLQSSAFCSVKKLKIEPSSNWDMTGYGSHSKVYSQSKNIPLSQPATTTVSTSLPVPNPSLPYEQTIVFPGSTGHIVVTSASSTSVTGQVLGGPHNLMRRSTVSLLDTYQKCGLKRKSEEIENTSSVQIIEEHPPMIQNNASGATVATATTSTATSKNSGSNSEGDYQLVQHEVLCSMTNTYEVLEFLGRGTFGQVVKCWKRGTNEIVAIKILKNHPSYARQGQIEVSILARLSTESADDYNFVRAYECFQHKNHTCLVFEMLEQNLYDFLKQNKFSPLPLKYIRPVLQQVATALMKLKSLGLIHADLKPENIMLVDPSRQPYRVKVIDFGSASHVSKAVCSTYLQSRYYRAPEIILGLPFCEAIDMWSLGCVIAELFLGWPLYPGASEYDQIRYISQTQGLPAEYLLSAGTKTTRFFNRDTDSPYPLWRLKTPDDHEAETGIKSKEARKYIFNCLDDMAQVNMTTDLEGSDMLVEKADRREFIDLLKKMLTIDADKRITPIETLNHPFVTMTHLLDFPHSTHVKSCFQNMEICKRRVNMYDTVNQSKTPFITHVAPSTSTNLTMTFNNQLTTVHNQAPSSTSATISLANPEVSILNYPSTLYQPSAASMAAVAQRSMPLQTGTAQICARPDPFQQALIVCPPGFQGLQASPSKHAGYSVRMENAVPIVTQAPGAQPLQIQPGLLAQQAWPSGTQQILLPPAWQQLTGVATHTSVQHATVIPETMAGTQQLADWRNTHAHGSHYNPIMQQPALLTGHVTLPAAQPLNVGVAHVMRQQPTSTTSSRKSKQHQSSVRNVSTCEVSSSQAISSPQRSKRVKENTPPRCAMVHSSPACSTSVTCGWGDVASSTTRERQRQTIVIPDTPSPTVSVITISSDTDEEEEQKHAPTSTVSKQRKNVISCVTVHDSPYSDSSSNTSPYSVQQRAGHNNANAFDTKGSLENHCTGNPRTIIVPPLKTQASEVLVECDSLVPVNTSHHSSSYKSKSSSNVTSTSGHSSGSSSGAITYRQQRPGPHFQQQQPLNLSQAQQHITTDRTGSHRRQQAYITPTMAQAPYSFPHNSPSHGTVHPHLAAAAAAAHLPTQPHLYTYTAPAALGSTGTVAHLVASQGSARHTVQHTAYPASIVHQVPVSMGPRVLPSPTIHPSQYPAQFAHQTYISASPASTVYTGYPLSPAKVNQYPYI
UniProt Q9UBE8, sequence (whole entry, looked up): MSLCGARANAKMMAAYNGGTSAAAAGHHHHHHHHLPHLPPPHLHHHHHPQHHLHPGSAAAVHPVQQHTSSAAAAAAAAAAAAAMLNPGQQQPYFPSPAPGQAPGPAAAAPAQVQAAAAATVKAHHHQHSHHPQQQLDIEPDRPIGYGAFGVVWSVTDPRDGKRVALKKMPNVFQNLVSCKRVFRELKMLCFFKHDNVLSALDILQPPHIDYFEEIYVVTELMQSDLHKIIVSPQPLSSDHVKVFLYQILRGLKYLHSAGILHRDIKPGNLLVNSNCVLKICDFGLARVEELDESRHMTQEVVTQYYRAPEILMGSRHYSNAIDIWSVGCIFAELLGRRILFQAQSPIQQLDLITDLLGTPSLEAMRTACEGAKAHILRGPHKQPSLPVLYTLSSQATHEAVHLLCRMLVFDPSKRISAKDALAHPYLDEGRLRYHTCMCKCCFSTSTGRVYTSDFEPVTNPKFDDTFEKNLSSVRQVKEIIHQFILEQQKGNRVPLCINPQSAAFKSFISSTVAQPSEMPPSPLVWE
UniProt Q9NYV4, sequence (whole entry, looked up): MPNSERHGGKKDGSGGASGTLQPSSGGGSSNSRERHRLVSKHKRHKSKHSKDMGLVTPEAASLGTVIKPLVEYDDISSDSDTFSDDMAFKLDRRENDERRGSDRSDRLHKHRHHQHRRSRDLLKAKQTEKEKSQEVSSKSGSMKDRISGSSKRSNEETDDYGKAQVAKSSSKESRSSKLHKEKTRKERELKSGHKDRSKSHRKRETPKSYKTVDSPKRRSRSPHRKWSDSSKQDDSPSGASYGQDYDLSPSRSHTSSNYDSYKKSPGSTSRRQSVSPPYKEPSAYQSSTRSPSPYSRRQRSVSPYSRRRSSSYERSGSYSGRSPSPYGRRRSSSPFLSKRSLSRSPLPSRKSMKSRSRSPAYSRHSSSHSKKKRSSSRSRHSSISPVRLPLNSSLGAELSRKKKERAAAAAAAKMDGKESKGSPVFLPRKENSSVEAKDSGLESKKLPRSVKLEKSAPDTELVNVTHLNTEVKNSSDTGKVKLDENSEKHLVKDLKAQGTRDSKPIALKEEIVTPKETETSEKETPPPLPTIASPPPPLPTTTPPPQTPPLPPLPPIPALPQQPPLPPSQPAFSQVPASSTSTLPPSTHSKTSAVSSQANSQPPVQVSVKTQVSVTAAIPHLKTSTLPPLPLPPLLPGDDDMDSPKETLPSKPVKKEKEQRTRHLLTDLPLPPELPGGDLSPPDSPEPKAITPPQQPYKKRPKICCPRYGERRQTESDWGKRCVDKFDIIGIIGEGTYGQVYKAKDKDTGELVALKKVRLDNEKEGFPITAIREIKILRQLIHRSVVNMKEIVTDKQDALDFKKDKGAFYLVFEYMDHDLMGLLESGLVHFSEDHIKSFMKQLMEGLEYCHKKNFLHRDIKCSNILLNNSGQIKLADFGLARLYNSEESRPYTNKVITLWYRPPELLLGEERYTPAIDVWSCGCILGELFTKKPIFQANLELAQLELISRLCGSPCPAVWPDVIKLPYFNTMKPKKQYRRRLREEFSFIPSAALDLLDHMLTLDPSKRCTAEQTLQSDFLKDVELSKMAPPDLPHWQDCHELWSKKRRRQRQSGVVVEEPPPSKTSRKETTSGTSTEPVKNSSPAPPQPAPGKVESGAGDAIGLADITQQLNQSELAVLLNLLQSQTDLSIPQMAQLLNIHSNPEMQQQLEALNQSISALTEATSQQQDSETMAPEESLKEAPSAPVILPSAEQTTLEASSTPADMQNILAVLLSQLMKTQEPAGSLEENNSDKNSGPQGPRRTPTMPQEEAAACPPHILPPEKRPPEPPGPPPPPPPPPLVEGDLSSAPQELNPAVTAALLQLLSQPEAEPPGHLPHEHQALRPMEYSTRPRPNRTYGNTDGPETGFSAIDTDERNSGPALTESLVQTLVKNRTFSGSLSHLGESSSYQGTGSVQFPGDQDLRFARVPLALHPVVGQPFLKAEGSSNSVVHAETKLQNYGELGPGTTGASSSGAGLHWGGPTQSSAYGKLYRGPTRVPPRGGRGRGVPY
UniProt Q16539, sequence (whole entry, looked up): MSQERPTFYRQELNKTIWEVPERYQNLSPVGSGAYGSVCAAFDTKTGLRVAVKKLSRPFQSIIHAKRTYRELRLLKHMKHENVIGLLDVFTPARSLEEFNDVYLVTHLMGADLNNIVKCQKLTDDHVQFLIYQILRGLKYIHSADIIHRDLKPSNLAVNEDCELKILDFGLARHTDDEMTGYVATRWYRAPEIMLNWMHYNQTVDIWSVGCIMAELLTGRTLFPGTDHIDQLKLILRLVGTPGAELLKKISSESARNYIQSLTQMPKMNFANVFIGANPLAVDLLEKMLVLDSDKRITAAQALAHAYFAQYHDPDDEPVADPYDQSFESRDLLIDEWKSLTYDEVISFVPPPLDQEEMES

SMILES	tested on	assay	system	setting	quantity	result
O=C1CC[C@H](N2Cc3cc(N4CCN(CC5CCN(c6ccc([C@@H]7c8ccc(O)cc8CC[C@@H]7c7ccccc7)cc6)CC5)CC4)ccc3C2=O)C(=O)N1			male Sprague-Dawley rat, plasma	intravenous, 5 mg/kg, fed	Vd	2.83 L/kg
Cc1cc([C@@H](C)Nc2ccccc2C(=O)O)c2nc(N3CCC(F)(F)CC3)c(C#N)c(=O)n2c1	MAPK14 (Homo sapiens, UniProt Q16539)	binding, competition with immobilised ligand		10 µM	remaining binding	92%
CCn1cc(C)c2c([C@H](O)c3ccc(C(F)(F)F)nc3)n(C)nc2c1=O		nephelometry	aqueous buffer	30 min, pH 6.5	kinetic solubility	160 to 320 µM (≈ 58.6 to 117 µg/mL)
COc1ccc2c(=O)n(C)c(-c3ccccc3)nc2c1			male Sprague-Dawley rat, plasma	oral, 30 mg/kg, 2 h	concentration	24 ng/mL
O=c1nc(N2CCN(CC3CCCCC3)CC2)sc2c([N+](=O)[O-])cc(C(F)(F)F)cc12			CD-1 mouse, plasma	oral, 100 mg/kg, 30 min	concentration	2900 ng/mL
COc1cc(-c2cncc3c2CN(C)Cc2cc(N4CCNCC4)ccc2-3)cc(OC)c1OC	NLK (Homo sapiens, UniProt Q9UBE8)	enzyme activity, inhibitor		1 µM	remaining activity	94%
Cc1cn(C2CC2)c(=O)c2nn(C)c(Cc3ccc(C(F)(F)F)nc3)c12		nephelometry	aqueous buffer	30 min, pH 6.5	kinetic solubility	130 to 260 µM (≈ 47.1 to 94.2 µg/mL)
CCCCC(=O)Nc1ccc(-c2ccc3ncn(CCC)c(=O)c3c2)cn1	MYLK2 (Homo sapiens, UniProt Q9H1R3)	binding, competition with immobilised ligand		0.5 µM	remaining binding	90%
COc1ccc([C@@H](O)c2cc(-c3ncnc4cc(N5CCOCC5)ccc34)c(F)cc2Cl)nn1			human, plasma	oral, 300 mg, single dose, patients	Tmax	1.51 h
COc1cccc(-c2n[nH]c(SCc3ccccn3)n2)c1OC			male Sprague-Dawley rat, plasma	oral, 100 mg/kg, 15 min, single dose	concentration	72000 ng/mL
O=C(c1ccc(F)cc1)C1CCN(CCn2c(=O)[nH]c3ccccc3c2=O)CC1		metabolic stability	monkey, liver microsomes	45 min	compound remaining	36.6%
CCn1ccc2c([C@@](O)(CC)c3cnc(C(F)(F)F)c(Cl)c3)n(C)nc2c1=O		nephelometry	aqueous buffer	30 min, pH 6.5	kinetic solubility	40 to 80 µM (≈ 16.6 to 33.2 µg/mL)
C=CC(=O)N1CCC(COCC(=O)N2CCN(c3nc(-c4cnc(N)nc4C(F)F)nc(N4CCOC[C@@H]4C)n3)CC2)CC1	HIPK2 (Homo sapiens, UniProt Q9H2X6)	binding, competition with immobilised ligand		1 µM	remaining binding	75%
Cc1noc(C)c1Cn1cc(N2C(=O)CN(Cc3cccc(O)c3)C2=O)cn1			male Sprague-Dawley rat, plasma	intravenous, 1 mg/kg, 4.8 min	concentration	619 ng/mL
CNc1ncc2c(/C=C/C(=O)N3CCC(OC)CC3)nn(Cc3cccc(C(F)(F)F)c3)c2n1	Cyclin-dependent kinase 12, with cyclin K (CDK12, Homo sapiens, UniProt Q9NYV4)	enzyme activity, inhibitor, radiometric		1 µM	remaining activity	107%

Excerpt of the above:
SMILES	tested on	assay	system	setting	quantity	result
Cc1noc(C)c1Cn1cc(N2C(=O)CN(Cc3cccc(O)c3)C2=O)cn1			male Sprague-Dawley rat, plasma	intravenous, 1 mg/kg, 4.8 min	concentration	619 ng/mL
C=CC(=O)N1CCC(COCC(=O)N2CCN(c3nc(-c4cnc(N)nc4C(F)F)nc(N4CCOC[C@@H]4C)n3)CC2)CC1	HIPK2 (Homo sapiens, UniProt Q9H2X6)	binding, competition with immobilised ligand		1 µM	remaining binding	75%
COc1cccc(-c2n[nH]c(SCc3ccccn3)n2)c1OC			male Sprague-Dawley rat, plasma	oral, 100 mg/kg, 15 min, single dose	concentration	72000 ng/mL
